{"data": "Assay results gathered from unrelated publications", "note": "Every numbered part comes from another study and shows a few of its results, in no order. Positions count from the first letter of the parent shown."}
{"data": "Set 1", "target": "Prothrombin, mature alpha-thrombin (F2, Homo sapiens, UniProt P00734)", "technique": "aptamer microarray, sandwich", "form": "DNA with 2'F-ANA", "sample": "in vitro", "concentration": "200 nM", "notes": "whole 15-mer aptamer, many near background", "together with": "Cy3 exosite-II aptamer, 400 nM", "direction": "higher = stronger binding", "oligonucleotide": "GGTTGGTGTGGTTGG"}
{"Modification": "2'F-ANA at 1 3 5 6 8 9 10 11 14 15", "mean fluorescence intensity [a.u.]": 52.8}
{"Modification": "2'F-ANA at 1 2 3 5 7 10 11 15", "mean fluorescence intensity [a.u.]": 74.8}
{"Modification": "2'F-ANA at 2 3 4 5 7 8 10 13 15", "mean fluorescence intensity [a.u.]": 48.4}
{"Modification": "2'F-ANA at 5 6 7 9 10 14 15", "mean fluorescence intensity [a.u.]": 109}
{"Modification": "2'F-ANA at 1 4 5 6 8 9 12 14 15", "mean fluorescence intensity [a.u.]": 47.8}
{"Modification": "2'F-ANA at 1 2 4 7 12", "mean fluorescence intensity [a.u.]": 359}
{"Modification": "2'F-ANA at 3 5 7 8 9 10 12 14", "mean fluorescence intensity [a.u.]": 59.6}
{"Modification": "2'F-ANA at 1 2 4 8 9 10 14", "mean fluorescence intensity [a.u.]": 44.7}
{"Modification": "2'F-ANA at 5 6 7 11 12 13 15", "mean fluorescence intensity [a.u.]": 113}
{"Modification": "2'F-ANA at 6 7 8 10 11 13 15", "mean fluorescence intensity [a.u.]": 123}
{"Modification": "2'F-ANA at 1 3 4 5 8 10 15", "mean fluorescence intensity [a.u.]": 45.6}
{"Modification": "2'F-ANA at 2 3 5 6 7 8 9 10 14", "mean fluorescence intensity [a.u.]": 52.2}
{"Modification": "2'F-ANA at 1 3 6 7 8 10 11 12 13", "mean fluorescence intensity [a.u.]": 107}
{"Modification": "2'F-ANA at 2 4 7 8 9 14", "mean fluorescence intensity [a.u.]": 117}
{"Modification": "2'F-ANA at 1 3 9 10 15", "mean fluorescence intensity [a.u.]": 81}
{"Modification": "2'F-ANA at 1 6 8 10 12 15", "mean fluorescence intensity [a.u.]": 86.6}
{"Modification": "2'F-ANA at 1 2 4 5 6 8 10 11 15", "mean fluorescence intensity [a.u.]": 51.3}
{"data": "Set 2", "target": "CCNF, cyclin fold, Cln2 fusion (human)", "technique": "yeast growth competition, sequencing", "sample": "yeast", "notes": "strong parent motif", "baseline": "not given", "direction": "higher = stronger binding", "starting sequence": "MICAL3 docking peptide (human); LQLRRQLSFSEDS"}
{"Variant": "LQPRRQLSFSEDS [L3P]", "normalised enrichment score": 5.91}
{"Variant": "LPLRRQLSFSEDS [Q2P]", "normalised enrichment score": 6.18}
{"Variant": "LQLRFQLSFSEDS [R5F]", "normalised enrichment score": 0.336}
{"Variant": "LRLRRQLSFSEDS [Q2R]", "normalised enrichment score": 5.36}
{"Variant": "LQLHRQLSFSEDS [R4H]", "normalised enrichment score": 1.81}
{"Variant": "LQLREQLSFSEDS [R5E]", "normalised enrichment score": -0.124}
{"Variant": "LGLRRQLSFSEDS [Q2G]", "normalised enrichment score": 5.37}
{"Variant": "LQLRRQLSFSETS [D12T]", "normalised enrichment score": 5.39}
{"Variant": "LQLRRQLSFSEPS [D12P]", "normalised enrichment score": 5.98}
{"Variant": "LQLRRQLSFSQDS [E11Q]", "normalised enrichment score": 5.36}
{"Variant": "LQLRRQASFSEDS [L7A]", "normalised enrichment score": -0.153}
{"Variant": "LQLRRQLSFSEAS [D12A]", "normalised enrichment score": 5.85}
{"data": "Set 3", "target": "Ras GTPase-activating protein-binding protein 1, C-terminal RGG region (G3BP1, Homo sapiens, UniProt Q13283)", "technique": "RNA Bind-n-Seq", "form": "RNA", "sample": "in vitro", "concentration": "1 µM", "notes": "whole 134-nt RNA, ends assumed", "together with": "150 mM KCl", "baseline": "input library", "direction": "higher = stronger binding", "shared flanks, not repeated": "GGGAGUUCUACAGUCCGACGAUC … UGGAAUUCUCGGGUGUCAAGG", "UniProt Q13283, sequence (whole entry, looked up)": "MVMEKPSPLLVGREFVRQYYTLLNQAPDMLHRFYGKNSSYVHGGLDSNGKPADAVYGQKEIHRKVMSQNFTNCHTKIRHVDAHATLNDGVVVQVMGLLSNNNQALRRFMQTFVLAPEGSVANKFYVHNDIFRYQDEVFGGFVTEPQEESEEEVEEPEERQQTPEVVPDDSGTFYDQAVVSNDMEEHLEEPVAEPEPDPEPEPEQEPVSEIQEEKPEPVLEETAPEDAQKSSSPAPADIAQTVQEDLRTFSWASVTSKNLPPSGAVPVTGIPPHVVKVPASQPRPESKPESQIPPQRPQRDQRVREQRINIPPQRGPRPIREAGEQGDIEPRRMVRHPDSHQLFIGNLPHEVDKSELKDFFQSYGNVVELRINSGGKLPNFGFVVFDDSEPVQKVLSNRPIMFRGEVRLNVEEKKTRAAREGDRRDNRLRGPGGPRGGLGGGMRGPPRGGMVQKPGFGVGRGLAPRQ"}
{"Oligonucleotide": "AAGUCCUGUGCUACACAUCGUAUGUACCGAAUCAAACCCCCAAAUUUAAAUUUAAAAAAGUAUUAUGUUACGCCGUUCGGAUCUGCACUU", "log2 enrichment": -0.507}
{"Oligonucleotide": "GUCCUGUGCUACACAUCGUAUGUACCGAAUCGGGGUUUGGGGUUUUUUUGGGGAGGGGAAAGUAUUAUGUUACGCCGUUCGGAUCUGCAC", "log2 enrichment": 2.17}
{"Oligonucleotide": "GUCCUGUGCUACACAUCGUAUGUACCGAAUCGGUUUUUUGGUUUUUUGGGUUUUUUGGGAAAGUAUUAUGUUACGCCGUUCGGAUCUGCA", "log2 enrichment": -1.66}
{"Oligonucleotide": "ACCAUGCAGGUGGGCAUCUUUGGGAAGUGGGGCAAGGGGGUGAUAGGGAGGGGGGUAACACUUUGGGAACAGGUGGUCCCAGGUCGUUUC", "log2 enrichment": 2.15}
{"Oligonucleotide": "UAUUGGACACAGUGCCCCGCUGAACAGCAGCUGUUCCCAGCGCCAGAGGACCCCACAGCCACAGUAGGAGCUUUGCGACCCCUACGCAAC", "log2 enrichment": -1.32}
{"Oligonucleotide": "CCUGUGCUACACAUCGUAUGUACCGAAUCGGUUUUUUUGGGUUUUUUUGGUUUUUUUGGGGAAAGUAUUAUGUUACGCCGUUCGGAUCUG", "log2 enrichment": -1.7}
{"Oligonucleotide": "UGGCCCUGGUGGCAUGCGGGGAGGAAGACGUGGCCUCAUGGAUCGUGGUGGUCCCGGUGGAAUGUUCAGAGGUGGCCGUGGUGGAGACAG", "log2 enrichment": 1.98}
{"Oligonucleotide": "GCAGGAAGUAAAAACAAAUGGAAAUGCUUCGGAUAGUGGCAGGGGUGGGGGUUGCUAAGGAAAGGGUGGAAAGGGAGUGGGUAAAGAGUU", "log2 enrichment": 1.45}
{"Oligonucleotide": "UCCUGUGCUACACAUCGUAUGUACCGAAUCAAAUUUUUUUAAACCCCCAAACCCCCAAAAAAGUAUUAUGUUACGCCGUUCGGAUCUGCA", "log2 enrichment": -0.828}
{"Oligonucleotide": "AGUCCUGUGCUACACAUCGUAUGUACCGAAUCGGCCCCCGGGGCCCCCGGCCCCCGGGAAAGUAUUAUGUUACGCCGUUCGGAUCUGCAC", "log2 enrichment": -1.92}
{"data": "Set 4", "target": "RNA binding protein fox-1 homolog 2, RRM domain, GST-SBP tag (RBFOX2, Homo sapiens, UniProt O43251-10, residues 100-194)", "technique": "RNA Bind-n-Seq", "form": "RNA", "sample": "in vitro", "concentration": "365 nM", "notes": "natural RNA segment, single round, ends assumed", "baseline": "no-protein control", "direction": "higher = stronger binding", "shared flanks, not repeated": "GGGAGUUCUACAGUCCGACGAUC … UGGAAUUCUCGGGUGCCAA", "Construct (chain)": "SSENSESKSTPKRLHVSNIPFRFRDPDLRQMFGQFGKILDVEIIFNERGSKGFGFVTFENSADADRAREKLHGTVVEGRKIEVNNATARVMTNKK"}
{"Oligonucleotide": "AUUCUUAUCAGCUAAAAUUAUCAAGUGGGCCAUUCCCAGAUGAAAAUUUCUAAUCUCAUGAGGUCUGUGGUGCUGCAGAAUUUAUACUGCAAUGUGGACUGUUUAGAAUU", "RBNS enrichment (R)": 0.5}
{"Oligonucleotide": "AGUGCUUCCAAAUUCUUUUGGUGCAAUUGAGGAGAUAUGCCAGAUGCUUAAACACAUUUAAUUGCUGUCAGAUUAAUUCCAUGAUCACUAAAGAGUUGCUGCUUUUUUCA", "RBNS enrichment (R)": 0.289}
{"Oligonucleotide": "CUCCCCCAAAUCGCCAUAUUUAAAAAUUAUUUUCACUCUAUUCUUGCUUAAAACUGUACUCUUUUGCAAAUUAACAAUUUUAUCACUGAUUCAGAGUUAAAAAGAAGACU", "RBNS enrichment (R)": 0.572}
{"Oligonucleotide": "UUAGCAUUGUGAGAUGGACUCAGCUCAGGGCGCCCCUAAGGCUCGGAGGCGGCCUUCUGGGUCCCCACCUCUCCUGGUUCCGCUGCUGCUCUCCCUGCUGAUGAUAAAGU", "RBNS enrichment (R)": 0.771}
{"Oligonucleotide": "AAGAAGCAGAUAUCUCGAAGGAGCUUACACAAGAACCACAAUUACUAGAUCAUGAUAUACUUGGAAAGUGUGAAAUAUGGUGUGUACUCAGUUAUUGGCUUCCAUUUUUU", "RBNS enrichment (R)": 0.646}
{"Oligonucleotide": "UAGAAUGUGGUAAUGGACAUAUUACUGAGCCUCUCCAUUUGGAACCCAGUGGAGUUGGGAUUUCUAGACCCUCUUUCUGUUUGGAUGGUGUAUGUGUAUAUGCAUGGGGA", "RBNS enrichment (R)": 8.46}
{"Oligonucleotide": "AAUUUGAUUAAAGGCAGAGUUUAGUAGACUUAAGAGCUUGCAAGGUUUUAAGAAAAUGUAGUGCCUCGUGGCUCCCUGGUUUAGUAACUUGGAGAGACAGUCUGUAGGAA", "RBNS enrichment (R)": 0.786}
{"Oligonucleotide": "GUCAGUACCAGUAGCUUCAGGGUCUGUCGUAGGAGCGAGGACAACUGUAAACACAGGGUCCGCUGAUCAAGUCCUUCUUGCUCAUUGCAGUUUGAUUUGCCAGCAGUCAU", "RBNS enrichment (R)": 0.44}
{"data": "Set 5", "target": "RING finger protein unkempt homolog, zinc fingers 1-6, GST-SBP tag (UNK, Homo sapiens, UniProt Q9C0B0, residues 30-357)", "technique": "RNA Bind-n-Seq", "form": "RNA", "sample": "in vitro", "concentration": "not given", "notes": "RNA with constant flanks, human-mouse chimeric sites, ends assumed", "baseline": "input RNA pool", "direction": "higher = stronger binding", "shared flanks, not repeated": "GGGAGUUCUACAGUCCGACGAUC … CAACAGAGGAUUGAGCAUCA", "UniProt Q9C0B0, sequence (30-357, looked up)": "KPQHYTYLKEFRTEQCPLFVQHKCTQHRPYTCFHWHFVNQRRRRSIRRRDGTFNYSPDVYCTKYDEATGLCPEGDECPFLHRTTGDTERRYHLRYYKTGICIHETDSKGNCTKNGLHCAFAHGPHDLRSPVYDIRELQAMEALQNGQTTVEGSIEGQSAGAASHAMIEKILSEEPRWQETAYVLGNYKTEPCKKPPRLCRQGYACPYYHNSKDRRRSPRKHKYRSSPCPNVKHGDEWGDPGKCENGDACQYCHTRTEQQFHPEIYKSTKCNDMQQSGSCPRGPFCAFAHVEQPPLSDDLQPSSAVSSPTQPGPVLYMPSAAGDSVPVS"}
{"Oligonucleotide": "GAAACAUUUAAAUUUAAAGAAGCUGUUGUUCUAGGAAGUACGGACUUUCUAGAAGAUGAUAUAGAAAAAAUUGUAGAAGAACUGGGAAAAGAGUAUAAGGGCAACGCCUACCAUCUGAUG", "bound/input enrichment": "1.49 ratio"}
{"Oligonucleotide": "GGAAGUACAUUAAUGGAGAUUGAUGGUGACAAAGGCAAGCAGGGCGGGCCCACCUACUACAUAGACACCAAUGCCCUGCGUGUUCCGAGGGAGAACAUGGAGGCCAUCUCACCACUCAAG", "bound/input enrichment": "0.253 ratio"}
{"Oligonucleotide": "AAAGAGAAACUAAAGCAACUAAUAGAGAAGAGGAUUGGGCAAAGAGAUUUCAUAGAGAAACUAGGAUUUAUUAGCAAAACAUGAGUUUAUUCCAGAGCGUCUCAGAAACCCCAGCCAAAC", "bound/input enrichment": "5.72 ratio"}
{"Oligonucleotide": "GUCAACAGCUGCCUCAACCCCAUCCUCUACGCCUUCCUGGAUGAGAACUUCAAGGCCUGCUUUAGAAAGUUCUGCUGUGCUUCUGCCCUGCGCCGGGACGUGCAGGUGUCUGACCGCGUG", "bound/input enrichment": "0.372 ratio"}
{"Oligonucleotide": "GGUGGGGUGGUCAUUGCCGUUUGAGCUGCUGAUUUUCAUGAGUCGCCUUCAAAACUCUCGUGUAGGGUUGACACUGUGGGGGGGUGGGGGAUCCAGCUUAUUCUUUUAUUUUCAAGUCCA", "bound/input enrichment": "0.452 ratio"}
{"Oligonucleotide": "AUGGAACAUUUCGAUGCGUCACUCAGUACCUAUUUCAAGGCAUUGCUGGGCCCCCGAGAUACAAGAGUCAAAGGAUGGUUCCUCCUGGACAAUUAUAUCCCUACGUUUGUCUGUUCUGUU", "bound/input enrichment": "0.119 ratio"}
